Assay results of several laboratories.
Every numbered part comes from another study and shows a few of its results, in no order. Substitutions count along the parent as printed.

Sample 1 — target: UBE2E3 UBC core domain (UniProt Q969T4); method: yeast two-hybrid; matrix: yeast; setting: mostly zero background; baseline: not given; direction: higher = stronger interaction; endpoint: lacZ reporter activity
Sequence of UniProt Q969T4 (whole entry, looked up): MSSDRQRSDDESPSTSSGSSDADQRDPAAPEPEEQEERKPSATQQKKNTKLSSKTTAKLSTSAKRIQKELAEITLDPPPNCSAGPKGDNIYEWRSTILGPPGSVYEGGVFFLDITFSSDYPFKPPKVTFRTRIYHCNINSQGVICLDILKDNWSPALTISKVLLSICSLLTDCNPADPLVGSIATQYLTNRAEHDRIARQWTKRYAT
B1: TRIM4 RING domain (UniProt Q9C037); chain EAEDIQEELTCPICLDYFQDPVSIECGHNFCRGCLHRNWAPGGGPFPCPECRHPSAPAALRP
B2: RNF38 RING domain (UniProt Q9H0F5); chain PNNHQSEQTLCVVCMCDFESRQLLRVLPCNHEFHAKCVDKWLKANRTCPICRADASEVHRDS
B3: DTX4 RING domain (UniProt Q9Y2E6); chain QKVRHPPDEDCTICMERLTAPSGYKGPQPTVKPDLVGKLSRCGHVYHIYCLVAMYNNGNKDGSLQCPTCKTIYGVKTGTQ
B4: TRIM5 RING domain (UniProt Q9C035); chain ILVNVKEEVTCPICLELLTQPLSLDCGHSFCQACLTANHKKSMLDKGESSCPVCRISYQPENIRP
B5: VPS41 RING domain (UniProt P49754); chain KGVLVDEENICESCLSPILPSDAAKPFSVVVFHCRHMFHKECLPMPSMNSAAQFCNICSAKNRGPGSAI
B6: RC3H1 RING domain (UniProt Q5TC82); chain QAPQWTDFLSCPICTQTFDETIRKPISLGCGHTVCKMCLNKLHRKACPFDQTTINTDIELL
B7: TRIML1 RING domain (UniProt Q8N9V2); chain LMENLREELTCFICLDYFSSPVTTECGHSFCLVCLLRSWEEHNTPLSCPECWRTLEGPHFQS
B8: NEURL1 RING domain (UniProt O76050); chain VTPGLGQWSDECTICYEHAVDTVIYTCGHMCLCYACGLRLKKALHACCPICRRPIKDIIKT
B1 (TRIM4 RING domain): 0
B2 (RNF38 RING domain): 0
B3 (DTX4 RING domain): 0
B4 (TRIM5 RING domain): 0
PAELEVQASECVVCLEREAQMIFLNCGHVCCCQQCCQPLRTCPLCRQDIAQRLRIY (LRSAM1 RING domain (UniProt Q6UWE0)): 0
B5 (VPS41 RING domain): 0
MPIRALCTICSDFFDHSRDVAAIHCGHTFHLQCLIQWFETAPSRTCPQCRIQVGKRTIIN (TRAIP RING domain (UniProt Q9BWF2)): 0
QVDKAVFHMQSVKCLKCQEQKRAVLPCQHAALCELCAEGSECPICQPGRAHTLQS (UNK RING domain (UniProt Q9C0B0)): 0
B6 (RC3H1 RING domain): 0
B7 (TRIML1 RING domain): 0
VEPSEENSKDCVVCQNGTVNWVLLPCRHTCLCDGCVKYFQQCPMCRQFVQESFALC (CGRRF1 RING domain (UniProt Q99675)): 0
B8 (NEURL1 RING domain): 0

Sample 2 — method: RNA Bind-n-Seq; form: RNA; matrix: in vitro; concentration: 365 nM; baseline: no-protein control; direction: higher = stronger binding; endpoint: RBNS enrichment (R)
Target: RNA binding protein fox-1 homolog 2, RRM domain, GST-SBP tag (RBFOX2, Homo sapiens, UniProt O43251-10, residues 100-194)
Setting: natural RNA segment, single round, ends assumed
Construct (chain): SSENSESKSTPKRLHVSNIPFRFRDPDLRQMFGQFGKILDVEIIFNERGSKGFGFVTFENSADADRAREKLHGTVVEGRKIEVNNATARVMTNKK
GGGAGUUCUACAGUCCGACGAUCAGUGCUACAUAGGUGCUUUGGGCGUAUGUAACAUUAGUGUCCUUCCUUGAAGCCACAAGCUAGUUUUCUUAGUUUUAAAAUCCUGUUGUAUGAAUGGCAUUUGUAUAUUAUGGAAUUCUCGGGUGCCAA: 0.669
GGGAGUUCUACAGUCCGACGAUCAGCCGGUUCUUACCUCUUAGGUGAAGGAGAUGACAUGUUUUUAGAAUUGCUGUGCAAGGCUCACCCUCUCUCUGUCAACACUGGAAUAAACUUUGCCUUUUCUGAGUAGUUGGAAUUCUCGGGUGCCAA: 0.338
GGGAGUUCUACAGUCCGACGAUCGUGUAGUGAAUUAUAACAACCUGAAGAUUGCUUUCUGAAACUGUUUUUAAGUUAAGGGAAAAAGUAUAUUUUUGUUAAAACUUUCAUGAAAAAAUAAAAUAUAUCCUUGUUGGAAUUCUCGGGUGCCAA: 0.75
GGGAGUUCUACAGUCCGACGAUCACCCUUAAUGGUGACAGACUCCUGGGCCUGCCACCUUGGACUUCCCUUAGGCUCACAGUUCAGAUCUGCAUGCAUUGCUUGCAUUGUUCUGGUAUCUGAAUGUUGAUUCCUGGAAUUCUCGGGUGCCAA: 1.89
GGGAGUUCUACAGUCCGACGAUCAGAGCCCUUCUCGUUUCUUUUUUAAACUAAUCACCAUAUUGUAAAUUUCAGGGUUUUUUUUUUUUUGUUUAAGCUGACUCUUUGCUCUAAUUUUGGAAAAAAAGAAAUGUUGGAAUUCUCGGGUGCCAA: 0.745
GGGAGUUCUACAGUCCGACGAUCUUAUUGGGCCACAGGAGGGUCAAUCUUGUGGGUCUGUGCUGUAAUCUGCCUUACUUGCACCCACCAGGAUAAGGACAUAAACGGUGCUCAACUUUUCUGCCACCAGACUGUGGAAUUCUCGGGUGCCAA: 0.388
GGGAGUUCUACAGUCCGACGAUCGAUGGGGCGGGAGGGCCAGACUCAGUGCUGCUGUGGAGCUAGGUGCUUCCCCCUUCCCCUGAGACUGGUGGACUGAACUCCAGUCAAGUUGAGUUCAAGUGAAAGAUUCUUGGAAUUCUCGGGUGCCAA: 0.411
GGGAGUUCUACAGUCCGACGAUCUUGCACCAAGAAGACAGCCUGAUAGCCCGACAGUUCUGAACUGGAACAUGGGCAUUGGGUUCUAAAGGACUAACAUAAAAUCUGUGAAUUAAAAAAGCUCAAUGCAUUGUUGGAAUUCUCGGGUGCCAA: 0.297
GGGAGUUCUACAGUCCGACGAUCCCAGCAUACUGCCUCUCUGUCUCCCAAAUCAGAGCUCAAGCCAAAUUCUUCUAUCCUCUUUCCCUCUUGCAUUAACCUUUGCUGAUCCUCAGGGACCACUCCCCCAGCACUGGAAUUCUCGGGUGCCAA: 1.35
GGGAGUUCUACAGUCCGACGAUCGUAGUCUUGUGCUGUCUCCUGUCCUCGUCCAUUUUAGAGCAAGACGGGAGGAAAAGGCAUUUCCAGCCCAGAACAAGGUCUAAUGCCAAUAAAUGGGAGGAAUGGGUGUAUGGAAUUCUCGGGUGCCAA: 0.345
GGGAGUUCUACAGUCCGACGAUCCCUACAGCCGCCACUGCUCCUCCACCCUGAUCAUCUCACAGGACAGGGUGGACCGGGUUUUUUUUUUUUUUCACACACCUUUGUAUAUGUAAGUUCAUGUAUAUAAUAUGUGGAAUUCUCGGGUGCCAA: 0.514
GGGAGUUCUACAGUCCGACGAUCUCAGGCCUGGAUCUUGCUCCUCUGUGAGGAACAAGGGUGCCUAAUAAAUACAUUUCUGCUUUAUUAACUCUUGCUCUGGGAUUGUGGUUUCUGACCUGGCCUCCUGGUUUUGGAAUUCUCGGGUGCCAA: 0.215

Sample 3 — target: CCNF, cyclin fold, Cln2 fusion (human); method: yeast growth competition, sequencing; matrix: yeast; setting: strong parent motif; baseline: not given; direction: higher = stronger binding; endpoint: normalised enrichment score
Starting sequence: GMNC docking peptide (human); KNAKRNLSSEFAN
KNAKRNLSPEFAN [S9P]: 0.693
KNAKRNLSSSFAN [E10S]: 0.825
KNAKANLSSEFAN [R5A]: 0.336
KNAKRNLSSEAAN [F11A]: 0.399
KNAKRNLDSEFAN [S8D]: 1.06
KNAKRNLSSEVAN [F11V]: 0.138
KNAKRNKSSEFAN [L7K]: 0.331
KNAKRNWSSEFAN [L7W]: 0.343
KVAKRNLSSEFAN [N2V]: 0.327
KNAKRNNSSEFAN [L7N]: 0.0133
KNAKRDLSSEFAN [N6D]: 0.138
KNAKRNLRSEFAN [S8R]: 0.39
KNAKRNLSSEMAN [F11M]: 0.895
KNAKRNLSYEFAN [S9Y]: 1.98
KNAKRNLSSTFAN [E10T]: 0.697
KNAKRNLSREFAN [S9R]: 1.38
KNAKWNLSSEFAN [R5W]: 0.537

Sample 4 — method: RNA Bind-n-Seq; form: RNA; matrix: in vitro; concentration: 1 µM; setting: whole 134-nt RNA, ends assumed; added: 150 mM KCl; baseline: input library; direction: higher = stronger binding; endpoint: log2 enrichment
Target: Ras GTPase-activating protein-binding protein 1, RRM domain (G3BP1, Homo sapiens, UniProt Q13283)
Sequence of UniProt Q13283 (whole entry, looked up): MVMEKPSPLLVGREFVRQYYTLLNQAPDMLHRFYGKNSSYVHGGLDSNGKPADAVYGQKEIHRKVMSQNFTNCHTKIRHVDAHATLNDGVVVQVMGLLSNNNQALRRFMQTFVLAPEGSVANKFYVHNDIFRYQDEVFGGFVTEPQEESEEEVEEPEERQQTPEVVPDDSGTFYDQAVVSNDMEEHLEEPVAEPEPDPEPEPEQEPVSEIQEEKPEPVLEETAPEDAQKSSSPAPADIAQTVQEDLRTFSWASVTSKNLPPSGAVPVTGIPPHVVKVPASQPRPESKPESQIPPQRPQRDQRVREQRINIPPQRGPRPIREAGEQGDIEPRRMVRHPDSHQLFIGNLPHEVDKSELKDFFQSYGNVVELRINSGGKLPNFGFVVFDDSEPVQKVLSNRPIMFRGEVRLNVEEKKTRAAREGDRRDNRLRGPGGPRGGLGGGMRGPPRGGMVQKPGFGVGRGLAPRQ
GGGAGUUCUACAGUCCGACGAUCAGUCCUGUGCUACACAUCGUAUGUACCGAAUCAAAGUGUGUGUGUGUGUGUGUGUAAAAAAGUAUUAUGUUACGCCGUUCGGAUCUGCACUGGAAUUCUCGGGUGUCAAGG: 0.0388
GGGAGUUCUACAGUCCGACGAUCUUCUUACAUGUGUAAUCUUCUUCUCCUAGGGCGGCAGAACUCAUGACAAGAACAAGCUCUGUGGUGACACUGGAAGUAGCAAAGCAGGGUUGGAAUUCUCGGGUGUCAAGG: 0.0668
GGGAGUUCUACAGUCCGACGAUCCACAGACAACACGCACCCACACAGACACAGAGGGAAGGGGUUGGGAUGGGGACAAAAUGCACAGCAGGGCGGGGUAGGACCCCAGCCCCUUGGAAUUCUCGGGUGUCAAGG: -0.198
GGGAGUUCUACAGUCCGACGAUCAGUCCUGUGCUACACAUCGUAUGUACCGAAUCGGGAGGGAAAAAAAGGGUUUUUGGGAAAGUAUUAUGUUACGCCGUUCGGAUCUGCACUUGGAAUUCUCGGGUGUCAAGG: 0.269
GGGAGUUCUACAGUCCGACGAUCUCCUCAAGUCCUGUGCUACACAUCGUAUGUACCGAAUCGGGAGGGAGGGAGGAAAGUAUUAUGUUACGCCGUUCGGAUCUGCACUUCCAGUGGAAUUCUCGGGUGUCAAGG: 0.747
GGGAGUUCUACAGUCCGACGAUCAAGUCCUGUGCUACACAUCGUAUGUACCGAAUCGGGGAGGGGAAAGGGGAAAGGGGAAAGUAUUAUGUUACGCCGUUCGGAUCUGCACUUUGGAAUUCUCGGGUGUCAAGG: 1.43
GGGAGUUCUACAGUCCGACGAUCACCAUGCAGGUGGGCAUCUUUGGGAAGUGGGGCAAGGGGGGGAUAGGGAGGGGGGUAACACUUUGGGAAAAAGUGGUCCCAGGUCGUUUCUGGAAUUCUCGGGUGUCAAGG: -0.518
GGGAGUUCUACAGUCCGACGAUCCCUGUGCUACACAUCGUAUGUACCGAAUCGGGCCCCCCGGGCCCCCCGGGGCCCCCCGGGAAAGUAUUAUGUUACGCCGUUCGGAUCUGCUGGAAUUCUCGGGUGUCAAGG: -0.671
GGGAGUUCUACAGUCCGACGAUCCUCAAGUCCUGUGCUACACAUCGUAUGUACCGAAUCGGGGCGGGGCGGCGGGGAAAGUAUUAUGUUACGCCGUUCGGAUCUGCACUUCCAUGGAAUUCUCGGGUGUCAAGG: 0.0844
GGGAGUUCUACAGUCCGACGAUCUCCUGUGCUACACAUCGUAUGUACCGAAUCGGGGAAAAAGGAAAAAGGGGAAAAAGGGGAAAGUAUUAUGUUACGCCGUUCGGAUCUGCAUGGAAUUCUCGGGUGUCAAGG: 0.047
